Assay results pooled from the literature.
Each numbered part is a random draw from the data of one study; scales do not carry over between parts.

Set 1 — technique: RNA Bind-n-Seq; form: RNA; medium: in vitro; tested at: 200 nM; notes: whole 134-nt RNA, ends assumed; together with: 150 mM KCl; baseline: input library; direction: higher = stronger binding; quantity: log2 enrichment
Target: Ras GTPase-activating protein-binding protein 1, full length (G3BP1, Homo sapiens, UniProt Q13283)
UniProt Q13283, sequence (whole entry, looked up): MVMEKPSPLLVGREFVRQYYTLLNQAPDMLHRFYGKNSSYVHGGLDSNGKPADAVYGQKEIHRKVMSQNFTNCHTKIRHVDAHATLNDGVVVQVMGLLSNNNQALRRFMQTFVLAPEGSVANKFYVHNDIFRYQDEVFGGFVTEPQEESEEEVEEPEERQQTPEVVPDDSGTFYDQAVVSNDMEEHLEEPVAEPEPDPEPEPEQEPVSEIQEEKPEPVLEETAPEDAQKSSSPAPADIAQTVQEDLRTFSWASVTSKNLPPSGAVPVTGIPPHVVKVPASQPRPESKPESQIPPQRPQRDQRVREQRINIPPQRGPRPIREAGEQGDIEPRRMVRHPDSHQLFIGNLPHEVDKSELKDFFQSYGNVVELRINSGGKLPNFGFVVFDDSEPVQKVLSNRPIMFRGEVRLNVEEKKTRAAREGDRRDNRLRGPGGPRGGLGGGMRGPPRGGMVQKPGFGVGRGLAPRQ
All sequences stand within: GGGAGUUCUACAGUCCGACGAUC … UGGAAUUCUCGGGUGUCAAGG
ACCAUGCAGGUGGGCAUCUUUGGGAAGUGGGGCAAGGGGGGGAUAGGGAGGGGGGUAACACUUUGGGAACAGGUGGUCCCAGUUCGUUUC: 1.01
GUCCUGUGCUACACAUCGUAUGUACCGAAUCGGGGCCCCCGGCCCCCGGGGCCCCCGGAAAGUAUUAUGUUACGCCGUUCGGAUCUGCAC: -0.9
AAGUCCUGUGCUACACAUCGUAUGUACCGAAUCGGGGCCCCGGGGCCCCGGCCCCGGAAAGUAUUAUGUUACGCCGUUCGGAUCUGCACU: 0.347
CACAGACAACACGCACCCACACAGACACAGAGGGAAGGGGUUGGGAUGCGGACAGGGUGCACAGCAGGGCGGGGUAGGACCCCAGCCCCU: 1.56
CUCAAGUCCUGUGCUACACAUCGUAUGUACCGAAUCGGAGGAAAAAAAGGAGGAAAGUAUUAUGUUACGCCGUUCGGAUCUGCACUUCCA: -0.388

Set 2 — technique: RNA Bind-n-Seq; form: RNA; medium: in vitro; tested at: not given; baseline: input RNA pool; direction: higher = stronger binding; quantity: bound/input enrichment
Target: RING finger protein unkempt homolog, zinc fingers 1-6, GST-SBP tag (UNK, Homo sapiens, UniProt Q9C0B0, residues 30-357)
UniProt Q9C0B0, sequence (30-357, looked up): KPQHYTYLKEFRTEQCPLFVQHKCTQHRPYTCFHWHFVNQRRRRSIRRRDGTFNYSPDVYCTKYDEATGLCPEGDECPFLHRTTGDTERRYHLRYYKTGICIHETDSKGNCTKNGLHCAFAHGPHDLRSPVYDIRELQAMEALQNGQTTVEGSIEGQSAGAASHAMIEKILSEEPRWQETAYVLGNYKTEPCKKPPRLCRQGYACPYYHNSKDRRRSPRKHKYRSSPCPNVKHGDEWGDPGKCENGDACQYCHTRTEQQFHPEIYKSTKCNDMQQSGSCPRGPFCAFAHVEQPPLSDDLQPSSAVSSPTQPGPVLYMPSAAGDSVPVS
Notes: RNA with constant flanks, human and mouse sites, ends assumed
GGGAGUUCUACAGUCCGACGAUCCACCAUUCUUUGUUUCCUAGGGAGUGACUGUCAAGUACUAAUUCCUCAAGAUGGUAUUUGUUAGUCCAAAAUGUUAAGCUUUUUAAAAAAAAAAUGUUACUUGAUUUCUUUUGAUUUGUACAACAGAGGAUUGAGCAUCA: 1.18 ratio
GGGAGUUCUACAGUCCGACGAUCUCUUUUGCUUUUUCUCGGCACGUGGUAUCUCCACCAUUUCUUCUGCACAAAGAUGUCUUCUGUUCAUCCUGAACAUUUUUAAAAAAUGCAGAAUUUUAUGUGACUGCUUUUUUGCCUCACCAACAGAGGAUUGAGCAUCA: 0.108 ratio
GGGAGUUCUACAGUCCGACGAUCUUAUUUGUCUUUAGCAUAUUCAAAAGAAAGCUGCUGAAUGGAAAGUCAAGAUAGAAAUUAUUGCAGAGCUUCGAUAUGAUCUACCAGCAUUAUACAACUUUCAUAAAAAGAAAUCUGUGGCAACAGAGGAUUGAGCAUCA: 0.406 ratio

Set 3 — technique: universal PBM; form: double-stranded DNA, one strand shown; medium: in vitro; tested at: not given; direction: higher = stronger binding; quantity: E-score
Target: Sal-like protein 4, full length isoform B (SALL4, Homo sapiens, UniProt Q9UJQ4-2, residues 1-616)
Notes: 8-mer, flanks averaged, mean of replicates
Construct (chain): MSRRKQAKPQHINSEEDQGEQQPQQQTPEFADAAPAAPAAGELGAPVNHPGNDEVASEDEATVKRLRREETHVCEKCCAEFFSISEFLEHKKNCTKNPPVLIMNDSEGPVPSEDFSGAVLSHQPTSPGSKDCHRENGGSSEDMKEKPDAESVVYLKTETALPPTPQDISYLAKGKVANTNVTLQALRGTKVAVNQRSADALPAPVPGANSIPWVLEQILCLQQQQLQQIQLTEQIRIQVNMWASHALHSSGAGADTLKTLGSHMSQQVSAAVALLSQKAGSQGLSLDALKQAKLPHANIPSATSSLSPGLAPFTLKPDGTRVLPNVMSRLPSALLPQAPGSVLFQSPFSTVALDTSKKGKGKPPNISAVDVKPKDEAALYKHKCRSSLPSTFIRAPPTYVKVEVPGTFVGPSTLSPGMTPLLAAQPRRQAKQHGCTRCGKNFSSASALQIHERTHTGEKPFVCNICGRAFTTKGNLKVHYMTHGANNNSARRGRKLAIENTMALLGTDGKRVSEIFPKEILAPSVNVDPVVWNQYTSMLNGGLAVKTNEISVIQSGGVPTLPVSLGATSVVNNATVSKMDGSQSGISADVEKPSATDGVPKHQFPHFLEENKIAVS
GCAAACCC: -0.196
TACTCTAA: 0.134
CAAGAGAA: 0.0233
CTCTACGA: 0.052
GTTTCAGA: 0.031
AGTAGCGC: -0.0663

Other studies, line by line
PhoQ, residues 284 288 289 292 302 303 SLCLSL — fold induction (PhoP, residues 12 14 15 18 19 NFCKL (Escherichia coli, UniProt P23836); Sort-seq, item: YFP reporter; E. coli; PhoQ-PhoP variant library, together with: 10 µM Mg2+; baseline: high Mg2+ state, higher = stronger signaling): 32.4

For quick reference, copied from above (set 3):
CTCTACGA: 0.052
TACTCTAA: 0.134
